Assay results of several laboratories.
Lines come from different studies, so protocols differ. ≈ marks a conversion by molar mass, not a printed value.

COc1ccc2c(c1)c(CC(=O)Nc1nnc(CCCCc3ccc(NC(=O)Cc4cccc(OC(F)(F)F)c4)nn3)[se]1)cn2C — aqueous solubility (saline or PBS): < 1 µg/mL
CCCC1CCCc2c1[nH]c(=O)c(C#N)c2-c1ccc(C)cc1 (stereo not drawn) — aqueous solubility (precipitation; PBS, from DMSO stock; concentration not given): not detected
CN1CCC(NC(=O)c2ccc(-c3cc(-c4ccc(F)cc4)c4oc5c(c4c3)CCN(C(=O)/C=C/c3ccc(N)nc3)C5)nn2)C(F)(F)C1 (stereo not drawn) — aqueous solubility (HCl salt): 30000 µg/mL
C[C@]12C[C@H](c3ccc(S(C)(=N)=O)cc3)C3=C4CCC(=O)C=C4CC[C@H]3[C@@H]1CC[C@@]2(O)C(F)(F)C(F)(F)F (stereo partly drawn) — aqueous solubility (nephelometry): 74 µg/mL (≈ 136 µM)
COc1ccc(N2CCOCC2)c2sc(NC(=O)c3ccnc(CN4CCCC4)c3)nc12 — aqueous solubility (buffer; 7 days, pH 8.0, room temperature, final pH 7.96): 90 µg/mL (≈ 198 µM)
CC(C)CCCC(C)CCCC(C)CCOC1OC[C@H](O)[C@H](O)[C@H]1O (stereo partly drawn) — aqueous solubility (filtration and HPLC-MS; water; room temperature): 9.86 ppm
O=C(Cc1ccccc1)Nc1nc2ccccc2n1Cc1ccccc1 — aqueous solubility (shake-flask; pH 7.0): 1.7 µg/mL (≈ 4.98 µM)
OC(CN1CCC2(CC1)CC(O)c1ccc3ccccc3c1O2)c1ccc(F)c(F)c1 (stereo not drawn) — aqueous solubility (UV absorbance; pH 7.4): 10 to 60 µg/mL (≈ 23.5 to 141 µM)
CC(C)CCCC(C)CCCC(C)CCOC1O[C@H](CO)[C@@H](O)[C@H](O)[C@@H]1O (stereo partly drawn) — aqueous solubility (filtration and HPLC-MS; water; room temperature): 7.68 ppm

Excerpt of the above:
COc1ccc2c(c1)c(CC(=O)Nc1nnc(CCCCc3ccc(NC(=O)Cc4cccc(OC(F)(F)F)c4)nn3)[se]1)cn2C — aqueous solubility (saline or PBS): < 1 µg/mL
